Measurements gathered from unrelated publications.
Compare with care: the assays were run in different laboratories. Values joined by “and” are separate records of one study, mostly repeats; a detail may differ. ± marks the error that the study gave.
CASP7: Caspase-7 (CASP7, Homo sapiens, UniProt P55210)
Gria2: Glutamate receptor 2 (Gria2, Rattus norvegicus, UniProt P19491)

N=C(N)NCc1ccc(CNC(=O)c2cc(-c3ccccc3)n(-c3ccccc3)n2)cc1 — inhibition (Genome polyprotein, NS2B-NS3 protease (dengue virus type 2, UniProt P29990); enzyme activity, fluorogenic AMC substrate; 50 µM): 60%
CC(=O)N[C@@H](CC(C)C)C(=O)N[C@@H](Cc1ccccc1)C(=O)N[C@@H](CO)C(=O)N[C@@H](CC(=O)O)C(=O)COC(=O)c1c(C)cccc1C — kinact/KI (CASP7; enzyme activity, inhibitor): 900 M⁻¹ s⁻¹
CCCCCCCCN(Cc1ccc(CNC(=O)OCCOC23CC4CC(C2)CC(C(N)C(=O)N2C(C#N)CC5CC52)(C4)C3)cc1)CC(O)C(O)C(O)C(O)CO (stereo not drawn) — duration of target coverage (Dipeptidyl peptidase 4 (Dpp4, Mus musculus, UniProt P28843); enzyme activity, inhibitor; mouse, BALF; intratracheal, 0.5 mg/kg once): 4 days
Cc1cc(NC(=O)[C@H](O)c2cc(F)cc(F)c2)ccc1-c1cnc(N)c(C(=O)NC(C)C)c1 — remaining binding (Tyrosine-protein kinase Blk (BLK, Homo sapiens, UniProt P51451); binding, competition with immobilised ligand; 1 µM): 34%
N#CN1CC[C@H](C(=O)Nc2nc3c(s2)CN(C(=O)Cn2cc(COCCOCCOCCOCCNC(=O)CCCC[C@@H]4SC[C@@H]5NC(=O)N[C@@H]54)nn2)CC3)C1 — iBAQ abundance (Ubiquitin carboxyl-terminal hydrolase isozyme L1 (UCHL1, Homo sapiens, UniProt P09936); probe binding, affinity probe, neutravidin pull-down LC-MS/MS; HEK293T, cell lysate; 5 µM, 1 h, single replicate, unit not given; higher = more pulled down): 2.26e+09 and 3.39e+09 and 5.44e+08
O=C(O)Cc1cc2c(cc1C(=O)c1cccc(Br)c1)OCO2 — current amplitude ratio (Gria2; glutamate-evoked current, whole-cell patch clamp; HEK-293T; concentration not given; baseline: glutamate alone): 5.22 ± 0.3
CNC1C[S+]2CC[S+]3CC[S+](C1)[Ru-4]321([N]=C=S)[n]2c3ccc(OC)cc3c3c4c(c5cc(F)c[n+]1c5c32)C(=O)NC4=O (stereo not drawn) — remaining binding (Tyrosine-protein kinase ABL1, phosphorylated (ABL1, Homo sapiens, UniProt P00519, Y253F); KinomeScan; 0.1 µM; baseline: untreated): 93%
CC(=O)N[C@@H](CC(C)C)C(=O)N[C@@H](CCC(=O)O)C(=O)N[C@@H](CCC1CCCCC1)C(=O)N[C@@H](CC(=O)O)C(=O)COC(=O)c1c(C)cccc1C — kinact/KI (CASP7; enzyme activity, inhibitor): 17700 M⁻¹ s⁻¹
C=CC(=O)N1CCC(c2ccccc2)CC1 — relative abundance (Fosb/Jund, ΔFosB bZIP domain (Mus musculus, UniProt P13346+P15066); intact mass LC-MS, refers to: unmodified JUND bZIP; concentration not given; baseline: total JUND species): 34.6%
CC(C)Oc1cc(Cl)ccc1CNc1cc(-c2ccccc2)nc2ncnn12 — cAMP luminescence (G-protein coupled receptor 3 (GPR3, Homo sapiens, UniProt P46089, R152A); cAMP level, cAMP GloSensor; 30 µM; higher = more cAMP): 18100 a.u. and 21800 a.u. and 16700 a.u. and 14700 a.u.
COC(=O)Cc1cc2c(cc1C(=O)c1cccc(Br)c1)OCO2 — desensitization time constant (Gria2; glutamate-evoked current, whole-cell patch clamp; HEK-293T; concentration not given, weighted tau, 500 ms pulse, together with: glutamate): 2.3 ± 0.1 ms
CCCCCC(O)/C=C/C=O (stereo not drawn) — probe labelling ratio (26S proteasome regulatory subunit 7 (PSMC2, Homo sapiens, UniProt P35998); acylphosphate-ATP probe SILAC-ABPP; ZAK-transfected HEK293T; 100 µM, together with: acylphosphate-ATP probe; baseline: DMSO over compound-treated): 0.6
Cc1ccc(NC(=O)NC(C)(C)c2cccc(NC3=CC(=O)N(C4CCC(=O)NC4=O)C3=O)c2)cc1Cl (stereo not drawn) — log2 fold change (Cereblon/Ikaros (Homo sapiens, UniProt Q13422+Q96SW2); degrader, quantitative proteomics, refers to: protein abundance; Jurkat; 1 µM, 4 h; baseline: DMSO): -1.74
C=CC(=O)N1CCCC(n2c(=O)c3ncccc3n(Cc3ccc(Oc4ccccc4)cc3)c2=O)C1 (stereo not drawn) — melting temperature (Small nuclear ribonucleoprotein Sm D2 (Homo sapiens, UniProt P62316); thermal proteome profiling, refers to: SNRPD2; treated): 60 °C and 58.7 °C
Cc1cc(-c2n[nH]cc2C(=O)Nc2ccc(C)c(F)c2)ccn1 — number of kinases hit (human kinase panel; binding, KINOMEscan; 10000 nM, %Ctrl below 35): 2
